Measured values from different studies.
Several values in a cell are separate wells, animals, samples, runs or records.
Cell line: HEK293

SMILES | assay | setting | IC50
COc1nc(OCc2cccc(-c3ccccc3)c2C)ccc1CNCCNC(C)=O | cell viability, MTT | – | 5.2 µM
CCCCCCOc1cc(NC(=O)c2ccc(OC)cc2)ccc1NC(=N)N | cell growth, MTT | 48 h | > 500 µM
CCOc1ccc(C(=O)Nc2ccc(S(N)(=O)=O)c(OC)c2)cc1 | cell viability, MTT | 48 h | > 100 µM
Nc1ccn([C@@H]2O[C@H](CO)[C@@H](O)C2(F)F)c(=O)n1 | cell viability, MTT | – | 0.1 µM
Cc1ccc(C(C)C)c(OC2=C(Cl)C(=O)c3ccccc3C2=O)c1 | MTT | 24 h | > 100 µg/mL
COc1cc(NC(=O)c2ccc(C#N)cc2)ccc1S(N)(=O)=O | cell viability, MTT | 48 h | > 100 µM
CC(C)C[C@H](NC(=O)[C@H](Cc1ccc(O)cc1)NC(=O)[C@@H]1CCCN1C(=O)[C@H](CCCNC(=N)N)NC(=O)[C@@H]1CCCN1C(=O)[C@H](CCCCN)NC(=O)[C@H](CC(=O)O)NC(=O)[C@@H]1CCCN1C(=O)[C@H](CCCNC(=N)N)NC(=O)C1(N)CCCCC1)C(=O)N1CCC[C@H]1C(=O)N[C@@H](CCCNC(=N)N)C(=O)N1CCC[C@H]1C(=O)N[C@@H](CCCNC(=N)N)C(=O)N1CCC[C@H]1C(=O)N1CCC[C@H]1C(=O)N[C@@H](CCCNC(=N)N)C(=O)N1CCC[C@H]1C(=O)N[C@H](C(=O)N[C@@H](CCCNC(=N)N)C(=O)N[C@@H](CSSC[C@H](NC(=O)[C@H](CCCNC(=N)N)NC(=O)[C@@H](NC(=O)[C@@H]1CCCN1C(=O)[C@H](CCCNC(=N)N)NC(=O)[C@@H]1CCCN1C(=O)[C@@H]1CCCN1C(=O)[C@H](CCCNC(=N)N)NC(=O)[C@@H]1CCCN1C(=O)[C@H](CCCNC(=N)N)NC(=O)[C@@H]1CCCN1C(=O)[C@H](CC(C)C)NC(=O)[C@H](Cc1ccc(O)cc1)NC(=O)[C@@H]1CCCN1C(=O)[C@H](CCCNC(=N)N)NC(=O)[C@@H]1CCCN1C(=O)[C@H](CCCCN)NC(=O)[C@H](CC(=O)O)NC(=O)[C@@H]1CCCN1C(=O)[C@H](CCCNC(=N)N)NC(=O)C1(N)CCCCC1)C(C)C)C(=O)NN)C(=O)NN)C(C)C | cytotoxicity | highest tested 125 µg/mL | > 125 µg/mL
N=C(N)Nc1ccc(NC(=O)c2ccc(Cl)c(Cl)c2)cc1OCc1ccc(C(F)(F)F)cc1 | cell growth, MTT | 48 h | > 500 µM
COc1cc(NC(=O)c2ccc([N+](=O)[O-])cc2)ccc1S(N)(=O)=O | cell viability, MTT | 48 h | > 100 µM
CC(O)[C@@H]1CCCN1C(=O)[C@@H]1CCCN1C(=O)OC(C)(C)C (mixture of isomers) | cell growth, sulforhodamine B | – | 3540 µM and 3440 µM and 3190 µM
COc1cc(NC(=O)c2ccccn2)ccc1S(N)(=O)=O | cell viability, MTT | 48 h | > 100 µM
CN(c1ccc(NC(=O)c2ccc(C(=N)N)cc2)cc1OCc1ccc(C(F)(F)F)cc1)S(=O)(=O)Cc1ccccc1 | cell growth, MTT | 48 h | > 500 µM
CC(=O)O[C@@]12CO[C@@H]1C[C@H](O)[C@@]1(C)C(=O)[C@H](O)C3=C(C)[C@@H](OC(=O)[C@H](O)[C@@H](NC(=O)OC(C)(C)C)c4ccccc4)C[C@@](O)([C@@H](OC(=O)c4ccccc4)[C@H]21)C3(C)C | MTT | 24 h | > 50 µg/mL
C#CCCCC[C@H](C)C[C@@H](C)C(=O)O | cell growth, sulforhodamine B | – | 232 µM and 329 µM and 216 µM
Cc1ccc(C)c(COc2cc(NC(=O)c3cc(C(F)(F)F)cc(C(F)(F)F)c3)ccc2NC(=N)N)c1 | cell growth, MTT | 48 h | > 500 µM

Some of these lines once more:
SMILES | assay | setting | IC50
CCCCCCOc1cc(NC(=O)c2ccc(OC)cc2)ccc1NC(=N)N | cell growth, MTT | 48 h | > 500 µM
